Published values collected from several papers.
Parts stem from different laboratories: compare values within a part only. Values joined by “and” are separate records of one study, mostly repeats; a detail may differ. ≈ marks a conversion by molar mass, not a printed value.
Chain of UniProt Q9UKT9 (whole entry, looked up): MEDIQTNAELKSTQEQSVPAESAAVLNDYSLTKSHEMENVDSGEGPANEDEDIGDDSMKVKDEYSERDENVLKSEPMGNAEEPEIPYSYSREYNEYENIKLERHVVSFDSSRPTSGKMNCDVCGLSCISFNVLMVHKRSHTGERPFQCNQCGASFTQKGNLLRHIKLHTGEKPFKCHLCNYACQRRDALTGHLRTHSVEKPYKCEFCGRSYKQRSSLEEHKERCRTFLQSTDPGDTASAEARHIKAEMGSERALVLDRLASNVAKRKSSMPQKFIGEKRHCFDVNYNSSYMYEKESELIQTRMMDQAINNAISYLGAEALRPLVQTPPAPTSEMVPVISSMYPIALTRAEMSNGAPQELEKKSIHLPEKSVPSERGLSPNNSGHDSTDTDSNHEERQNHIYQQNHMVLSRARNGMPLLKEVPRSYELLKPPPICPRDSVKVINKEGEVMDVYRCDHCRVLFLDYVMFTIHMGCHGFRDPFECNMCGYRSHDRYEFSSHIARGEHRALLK
Chain of UniProt Q9H2S9 (whole entry, looked up): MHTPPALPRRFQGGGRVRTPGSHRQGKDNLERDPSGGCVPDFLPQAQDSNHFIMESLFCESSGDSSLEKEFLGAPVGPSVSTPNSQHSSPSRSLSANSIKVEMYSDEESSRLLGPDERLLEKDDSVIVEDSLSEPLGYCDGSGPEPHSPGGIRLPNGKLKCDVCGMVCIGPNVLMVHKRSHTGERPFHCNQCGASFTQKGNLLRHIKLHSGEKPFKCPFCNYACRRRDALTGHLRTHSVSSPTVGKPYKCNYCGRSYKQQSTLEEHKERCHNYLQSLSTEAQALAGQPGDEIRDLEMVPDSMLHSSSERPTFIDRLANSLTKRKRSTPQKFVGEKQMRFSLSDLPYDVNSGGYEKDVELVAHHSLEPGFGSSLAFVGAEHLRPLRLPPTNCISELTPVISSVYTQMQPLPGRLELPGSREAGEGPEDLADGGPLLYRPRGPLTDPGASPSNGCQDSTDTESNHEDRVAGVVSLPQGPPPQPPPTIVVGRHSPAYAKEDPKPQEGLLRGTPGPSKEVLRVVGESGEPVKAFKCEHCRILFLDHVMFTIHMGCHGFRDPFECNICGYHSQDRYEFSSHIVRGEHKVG
Chain of UniProt Q13422 (whole entry, looked up): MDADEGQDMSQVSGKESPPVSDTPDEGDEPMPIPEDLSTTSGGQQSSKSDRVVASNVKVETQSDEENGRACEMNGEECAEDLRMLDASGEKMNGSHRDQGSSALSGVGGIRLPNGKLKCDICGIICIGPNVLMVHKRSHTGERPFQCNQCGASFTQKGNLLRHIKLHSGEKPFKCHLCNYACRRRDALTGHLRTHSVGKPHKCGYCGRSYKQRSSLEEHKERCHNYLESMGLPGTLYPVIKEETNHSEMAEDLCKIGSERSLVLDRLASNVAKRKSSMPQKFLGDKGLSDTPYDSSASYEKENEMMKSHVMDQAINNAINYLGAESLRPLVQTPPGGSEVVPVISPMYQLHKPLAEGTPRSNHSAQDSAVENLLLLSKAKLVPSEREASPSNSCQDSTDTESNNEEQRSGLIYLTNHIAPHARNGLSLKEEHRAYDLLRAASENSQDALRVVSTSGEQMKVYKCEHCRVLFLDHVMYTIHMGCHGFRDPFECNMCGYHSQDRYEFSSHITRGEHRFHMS
Chain of UniProt Q9Y4K4 (whole entry, looked up): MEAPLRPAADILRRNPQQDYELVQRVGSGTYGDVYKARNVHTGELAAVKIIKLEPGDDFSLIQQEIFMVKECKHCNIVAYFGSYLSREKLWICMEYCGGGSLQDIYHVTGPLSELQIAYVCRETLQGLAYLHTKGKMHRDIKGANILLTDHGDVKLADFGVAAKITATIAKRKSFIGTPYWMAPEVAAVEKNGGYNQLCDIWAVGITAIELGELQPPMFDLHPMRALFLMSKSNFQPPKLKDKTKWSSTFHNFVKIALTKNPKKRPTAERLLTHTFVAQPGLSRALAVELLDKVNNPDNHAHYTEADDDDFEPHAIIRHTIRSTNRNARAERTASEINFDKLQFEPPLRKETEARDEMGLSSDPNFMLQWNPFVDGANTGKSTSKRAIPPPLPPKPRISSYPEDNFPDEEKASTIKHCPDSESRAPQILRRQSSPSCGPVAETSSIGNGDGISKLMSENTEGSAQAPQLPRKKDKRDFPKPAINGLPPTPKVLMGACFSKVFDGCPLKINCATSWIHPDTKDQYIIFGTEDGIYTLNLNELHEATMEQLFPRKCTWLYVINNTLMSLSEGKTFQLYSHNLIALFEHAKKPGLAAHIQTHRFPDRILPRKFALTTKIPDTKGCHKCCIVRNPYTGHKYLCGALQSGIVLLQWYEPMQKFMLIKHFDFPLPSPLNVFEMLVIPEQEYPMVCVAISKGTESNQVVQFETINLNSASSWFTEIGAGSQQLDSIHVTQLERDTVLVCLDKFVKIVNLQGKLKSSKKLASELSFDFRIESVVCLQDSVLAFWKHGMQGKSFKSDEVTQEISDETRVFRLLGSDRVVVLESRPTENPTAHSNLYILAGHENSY
Chain of UniProt P10721 (whole entry, looked up): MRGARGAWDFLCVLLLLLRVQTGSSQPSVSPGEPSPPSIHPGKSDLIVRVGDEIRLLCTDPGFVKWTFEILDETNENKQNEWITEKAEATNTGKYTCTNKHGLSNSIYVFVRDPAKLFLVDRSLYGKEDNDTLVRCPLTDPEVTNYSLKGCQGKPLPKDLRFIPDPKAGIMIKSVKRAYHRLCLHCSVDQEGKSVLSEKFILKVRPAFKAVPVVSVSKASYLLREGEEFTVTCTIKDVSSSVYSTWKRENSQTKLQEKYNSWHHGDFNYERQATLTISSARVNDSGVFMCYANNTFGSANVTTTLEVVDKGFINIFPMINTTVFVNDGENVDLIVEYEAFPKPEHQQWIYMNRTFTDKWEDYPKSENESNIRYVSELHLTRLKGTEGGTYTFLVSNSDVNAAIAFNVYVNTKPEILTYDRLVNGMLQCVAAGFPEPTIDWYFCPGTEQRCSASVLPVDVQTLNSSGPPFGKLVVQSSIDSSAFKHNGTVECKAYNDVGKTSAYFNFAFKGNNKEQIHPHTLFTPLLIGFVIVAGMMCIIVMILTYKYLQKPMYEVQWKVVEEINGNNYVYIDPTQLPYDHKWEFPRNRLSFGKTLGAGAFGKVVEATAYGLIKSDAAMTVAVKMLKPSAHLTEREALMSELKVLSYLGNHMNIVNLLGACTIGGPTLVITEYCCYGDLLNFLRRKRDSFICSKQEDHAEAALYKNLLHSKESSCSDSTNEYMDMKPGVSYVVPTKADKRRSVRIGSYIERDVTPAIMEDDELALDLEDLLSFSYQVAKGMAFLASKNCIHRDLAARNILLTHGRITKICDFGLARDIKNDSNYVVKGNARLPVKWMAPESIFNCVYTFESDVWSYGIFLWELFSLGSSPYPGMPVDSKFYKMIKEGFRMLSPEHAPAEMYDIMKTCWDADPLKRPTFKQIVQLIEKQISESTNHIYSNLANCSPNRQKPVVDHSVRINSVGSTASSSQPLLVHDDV

Set 1
Sample: CES1-/- mouse GI tissue homogenate
Time: 60 min
| Compound | remaining compound [%] |
| --- | --- |
| [2H]C([2H])([2H])OC(=O)[C@H](CCC(=O)C=[N+]=[N-])NC(=O)[C@H](Cc1c[nH]c2ccccc12)NC(C)=O | 2 |
| CC(=O)N[C@@H](Cc1c[nH]c2ccccc12)C(=O)N[C@@H](CCC(=O)C=[N+]=[N-])C(=O)OC(CF)CF | 1 |
| COCCOCCOC(=O)[C@H](CCC(=O)C=[N+]=[N-])NC(=O)[C@H](Cc1c[nH]c2ccccc12)NC(=O)CN(C)C | 3 |
| COCCOCCOC(=O)[C@H](CCC(=O)C=[N+]=[N-])NC(=O)[C@H](Cc1c[nH]c2ccccc12)NC(C)=O | 1 |

Set 2
Structure (SMILES): COc1cc(-c2nc3ccc(C(=O)NCCCN(C)C)cc3n2C2CCC2)cc(OC)c1OC
Observed: binding
Technique: competition with immobilised ligand
Tested at: 1 µM
| target | remaining binding [%] |
| --- | --- |
| MAP4K5 (Homo sapiens, UniProt Q9Y4K4) | 100 |
| BRSK1 (Homo sapiens, UniProt Q8TDC3) | 97 |
| KIT (Homo sapiens, UniProt P10721) | 97 |
| SRPK1 (Homo sapiens, UniProt Q96SB4) | 95 |
| Ribosomal protein S6 kinase alpha-3, C-terminal kinase domain (RPS6KA3, Homo sapiens, UniProt P51812) | 67 |
| MAPK8 (Homo sapiens, UniProt P45983) | 62 |
| MAP2K6 (Homo sapiens, UniProt P52564) | 100 |
| Cyclin-dependent kinase 4, with cyclin D3 (CDK4, Homo sapiens, UniProt P11802) | 98 |

Set 3
Compound: Cn1cc(-c2cccc(CN3CCC4(CC3)COc3c4ccc4c3CN([C@H]3CCC(=O)NC3=O)C4=O)c2)cn1
Mode: degrader
CSNK1A1: Casein kinase I isoform alpha (CSNK1A1, Homo sapiens, UniProt P48729)
Chain of UniProt P48729 (whole entry, looked up): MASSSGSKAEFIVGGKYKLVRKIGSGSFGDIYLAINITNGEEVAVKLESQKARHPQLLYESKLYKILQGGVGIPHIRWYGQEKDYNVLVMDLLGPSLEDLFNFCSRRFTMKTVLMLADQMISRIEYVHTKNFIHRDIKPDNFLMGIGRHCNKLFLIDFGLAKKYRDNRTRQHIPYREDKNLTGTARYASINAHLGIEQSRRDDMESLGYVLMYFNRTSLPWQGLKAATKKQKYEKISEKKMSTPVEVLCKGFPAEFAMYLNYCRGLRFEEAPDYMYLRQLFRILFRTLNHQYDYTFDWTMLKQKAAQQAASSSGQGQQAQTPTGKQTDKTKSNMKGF
CRBN/Zinc finger protein Helios: CRBN/Zinc finger protein Helios (Homo sapiens, UniProt Q96SW2+Q9UKS7)
Chain of UniProt Q9UKS7 (whole entry, looked up): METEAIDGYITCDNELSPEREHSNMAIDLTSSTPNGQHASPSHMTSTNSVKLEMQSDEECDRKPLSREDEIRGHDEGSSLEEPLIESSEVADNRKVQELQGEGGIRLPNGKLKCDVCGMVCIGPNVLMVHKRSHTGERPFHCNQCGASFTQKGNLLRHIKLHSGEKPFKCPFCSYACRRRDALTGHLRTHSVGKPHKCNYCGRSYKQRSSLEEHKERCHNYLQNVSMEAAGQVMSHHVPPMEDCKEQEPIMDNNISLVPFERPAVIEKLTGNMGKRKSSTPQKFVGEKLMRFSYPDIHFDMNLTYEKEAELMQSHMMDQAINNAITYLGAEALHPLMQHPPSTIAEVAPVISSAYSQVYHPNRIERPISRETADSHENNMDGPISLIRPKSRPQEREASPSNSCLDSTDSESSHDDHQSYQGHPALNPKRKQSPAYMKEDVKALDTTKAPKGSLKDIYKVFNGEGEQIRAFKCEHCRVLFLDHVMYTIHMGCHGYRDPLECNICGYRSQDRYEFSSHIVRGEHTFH
Chain of UniProt Q96SW2 (whole entry, looked up): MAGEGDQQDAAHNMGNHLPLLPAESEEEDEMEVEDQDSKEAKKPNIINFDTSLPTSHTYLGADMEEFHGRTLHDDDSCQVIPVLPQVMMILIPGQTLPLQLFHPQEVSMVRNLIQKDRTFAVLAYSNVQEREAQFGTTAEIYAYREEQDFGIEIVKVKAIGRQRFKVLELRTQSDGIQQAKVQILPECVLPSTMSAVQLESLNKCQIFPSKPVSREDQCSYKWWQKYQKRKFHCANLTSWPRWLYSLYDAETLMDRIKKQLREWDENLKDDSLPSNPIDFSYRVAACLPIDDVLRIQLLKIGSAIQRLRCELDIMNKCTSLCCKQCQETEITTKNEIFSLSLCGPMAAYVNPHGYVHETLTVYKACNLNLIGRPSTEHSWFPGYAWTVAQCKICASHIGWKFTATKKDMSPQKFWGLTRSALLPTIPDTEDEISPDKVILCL
| target | test | system | conditions | remaining protein |
| --- | --- | --- | --- | --- |
| CSNK1A1 | HiBiT | HEK293 | 41.15 nM | 104% and 106% |
| Zinc finger protein Eos (IKZF4, Homo sapiens, UniProt Q9H2S9) | HiBiT | HEK293 | 333.3 nM, 6 h | 100% and 107% |
| CRBN/Zinc finger protein Helios | flow cytometry | primary human regulatory T cells | 12.35 nM, 6 h | 23.6% and 33.1% |
| CRBN/Zinc finger protein Helios | flow cytometry | primary human regulatory T cells | 0.05081 nM, 3 h | 96.6% and 104% |
| Zinc finger protein Aiolos (Homo sapiens, UniProt Q9UKT9) | HiBiT | HEK293 | 1.524 nM | 97% and 98.1% |
| CRBN/Zinc finger protein Helios | flow cytometry | Jurkat | 12 nM | 58% and 66.9% |
| CSNK1A1 | HiBiT | HEK293 | 13.72 nM | 103% and 101% |
| DNA-binding protein Ikaros (Homo sapiens, UniProt Q13422) | HiBiT | HEK293 | 1.524 nM | 95.8% and 96.2% |
| CRBN/Zinc finger protein Helios | flow cytometry | primary human regulatory T cells | 1.372 nM, 3 h | 107% and 98.5% |
| CRBN/Zinc finger protein Helios | flow cytometry | Jurkat | 1000 nM | 35% and 37.8% |
| CRBN/Zinc finger protein Helios | flow cytometry | primary human regulatory T cells | 333.3 nM, 6 h | 9.56% and 5.63% |
| CRBN/Zinc finger protein Helios | flow cytometry | Jurkat | 4.1 nM | 77% and 78.9% |
| CRBN/Zinc finger protein Helios | flow cytometry | primary human regulatory T cells | 1000 nM, 3 h | 29.7% and 20% |

Further values, each from its own experiment
| SMILES | target or system | test | system | conditions | endpoint | value |
| --- | --- | --- | --- | --- | --- | --- |
| CCCCC[C@@H]1CC(=O)N[C@@H](C(C)C)C(=O)N[C@H](CCCNC(=N)N)C(=O)N[C@@H](CO)C(=O)NCC(=O)N(C)[C@H](Cc2ccccc2)C(=O)N[C@@H](CC(C)C)C(=O)N[C@H](CCCNC(=N)N)C(=O)N[C@@H](CC(N)=O)C(=O)N[C@H](C(C)C)C(=O)N[C@H](Cc2c[nH]c3ccccc23)C(=O)NCCCC(=O)O1 | Staphylococcus aureus | – | USA300 | added: menaquinone 0.125 µg/mL | MIC | 8 µg/mL (≈ 5.49 µM) |
| Cc1ccc(O)c(C)c1-c1cnc2[nH]c(-c3cnc(N4CCC(CN5CCN(c6ccc(C(=O)NC7CCC(=O)NC7=O)c(F)c6)CC5)CC4)nc3)cc2c1C#N (racemic) | HCC1569 | in-cell western, measured: CDK1 phospho-Thr14 | – | 3333.33 nM | pCDK1 (Thr14) level | 137% and 140% |
